Assay results from different studies.

CC[C@H](C)[C@H](NC(=O)[C@H](CCCCN)NC(=O)[C@H](CS)NC(=O)[C@H](CC(N)=O)NC(=O)[C@H](C)NC(=O)[C@H](CCCNC(=N)N)NC(=O)[C@H](CCCNC(=N)N)NC(=O)[C@H](CC(N)=O)NC(=O)[C@H](CCCNC(=N)N)NC(=O)[C@H](CCCNC(=N)N)NC(=O)[C@H](C)NC(=O)[C@H](CS)NC(=O)[C@H](CO)NC(=O)[C@@H](NC(=O)[C@@H](NC(=O)[C@H](CS)NC(=O)[C@H](CCCCN)NC(=O)[C@@H](N)CCCNC(=N)N)C(C)C)[C@@H](C)CC)C(=O)N[C@@H](CC(C)C)C(=O)N[C@@H](CS)C(=O)N[C@@H](CC(N)=O)C(=O)O — two-disulfide form (LC/MS; PBS; 0.1 mg/mL; relative to: LC peak area): 52%
CN1CCC[C@]1(C)/C=C/S(=O)(=O)NC(=O)Nc1c2c(cc3c1CCC3)CCC2 — Cmax after second dose (human, plasma; oral, 100 mg twice daily, day 14, multiple ascending dose): 16100 ng/mL
Cc1cc2c(NC(=O)N[C@@H]3CC(C)(C)Oc4c(OC(F)(F)F)cccc43)cccc2cn1 — body temperature decrease (telemetry; male Sprague-Dawley rats; oral, 100 µmol/kg): 2 °C
CCCCCCCCN(CCC(=O)Nc1ccccc1)C(=O)c1ccccn1 — half-life (chemical stability; mouse, culture medium; 500 µM): > 24 h
Cn1c(=O)oc2ccc(-c3ccc(CC(C#N)NC(=O)C4CNCCCO4)c(F)c3)cc21 (centres unmarked) — treatment-emergent adverse event incidence (item: chest pain; human volunteers; oral, dose not given): 3.7%
CNC(=S)N/N=C/c1ccccn1 — peak potential separation (cyclic voltammetry; anhydrous DMF; Cu2+ complex, glassy carbon electrode): 0.13 mV
CC1=C(/C=C/C(=O)N2CCN(C(N)=O)CC2)C(C)(C)CCC1 — Cmax (female mice, retina; oral, 120 mg/kg): 30 nmol/g
N=C(N)NCCC[C@@H]1NC(=O)[C@H](Cc2c[nH]c3ccccc23)NC(=O)[C@@H](CC2CCCCC2)NC(=O)[C@@H]2CCCN2C(=O)[C@@H](NC(=O)CCc2ccccc2)CCCNC1=O — MRT(0-inf) (C57BL/6J mouse, plasma brain; intravenous, 1 mg/kg single dose): 3.88 h

Some of these lines once more:
CC1=C(/C=C/C(=O)N2CCN(C(N)=O)CC2)C(C)(C)CCC1 — Cmax (female mice, retina; oral, 120 mg/kg): 30 nmol/g
